Experimental data gathered from unrelated publications.
Lines come from different studies, so protocols differ. Several values in a cell are separate wells, animals, samples, runs or records. ± gives the spread as reported.

SMILES | assay | test system | setting | how to read | endpoint | value
CC(=O)Oc1ccccc1C(=O)O | – | male Hartley guinea pig, anaesthetized | intravenous infusion, 1 mg/kg, 10 min infusion, post-infusion | – | QTc interval | 310 ± 0.2 ms
CCc1cc(C(=O)NC)c2nccc(N3CCc4c(cc(Cn5ccnc5)cc4-c4cn(C)nc4C(F)(F)F)C3=O)c2c1 | – | Sprague Dawley rats | oral, 50 mg/kg once daily, 7 days | baseline: vehicle | serum HDL change | -1.4%
Cc1cc(Cl)c(O)c(NS(=O)(=O)c2cc(Cl)cc(Cl)c2O)c1F | colloidal aggregate formation, dynamic light scattering | 50 mM potassium phosphate buffer | 200 µM, pH 7.0, 1% DMSO | higher = more aggregation | DLS scattered light intensity | 591000 counts/s
O=C(COc1ccc(Cl)cc1)NC12CC(c3nnc([C@H]4C[C@@H](OC(F)(F)F)C4)o3)(C1)C2 | – | healthy human both sexes, plasma | oral, 260 mg once daily, day 1, mean | – | Cmax | 3890 nM
O=C1CC[C@H](N2Cc3cc(N4CCN(CC5CCN(c6ccc([C@@H]7c8ccc(O)cc8CC[C@@H]7c7ccccc7)cc6)CC5)CC4)ccc3C2=O)C(=O)N1 | – | EpiIntestinal microtissues incubation buffer | 40 µM, 3 h | – | buffer concentration | 19.7 µM
CNC(=O)c1cccc(-c2ccc([C@@H](O)[C@H]3O[C@H](CO)[C@@H](O)[C@H](O)[C@@H]3O)c(C)c2)c1 | – | Sprague-Dawley rat, male, plasma | oral, 10 mg/kg | – | terminal half-life | 3.56 h and 3.81 h and 3.22 h
Cc1nc(-c2ccc(OCC(C)C)c(C#N)c2)sc1C(=O)O | – | healthy Chinese subjects | oral, 40 mg, fed, single dose | – | subjects with AEs leading to withdrawal | 0%
CC[C@H](C)[C@H](NC(=O)[C@H](Cc1ccccc1)NC(=O)[C@H](CCC(=O)O)NC(=O)[C@H](CCCCNC(=O)COCCOCCNC(=O)COCCOCCNC(=O)CC[C@H](NC(=O)CCCCCCCCCCCCCCCCC(=O)O)C(=O)O)NC(=O)[C@H](C)NC(=O)[C@H](C)NC(=O)[C@H](CCC(N)=O)NC(=O)CNC(=O)[C@H](CCC(=O)O)NC(=O)[C@H](CC(C)C)NC(=O)[C@H](Cc1ccc(O)cc1)NC(=O)[C@H](CO)NC(=O)[C@H](CO)NC(=O)[C@@H](NC(=O)[C@H](CC(=O)O)NC(=O)[C@H](CO)NC(=O)[C@@H](NC(=O)[C@H](Cc1ccccc1)NC(=O)[C@@H](NC(=O)CNC(=O)[C@H](CCC(=O)O)NC(=O)C(C)(C)NC(=O)[C@@H](N)Cc1cnc[nH]1)[C@@H](C)O)[C@@H](C)O)C(C)C)C(=O)N[C@@H](C)C(=O)N[C@@H](Cc1c[nH]c2ccccc12)C(=O)N[C@@H](CC(C)C)C(=O)N[C@H](C(=O)N[C@@H](CCCNC(=N)N)C(=O)NCC(=O)N[C@@H](CCCNC(=N)N)C(=O)NCC(=O)O)C(C)C | hypoglycaemic clamp | type 2 diabetes patients | dose not given, plasma glucose 5.5 to 3.5 mmol/L | – | diastolic blood pressure change | -4.2 mmHg
Cc1cccc(CNC(=O)c2cn(CCNC(=O)c3ccccc3Sc3c([N+](=O)[O-])ncn3C)c3cc4c(cc3c2=O)OC(F)(F)O4)n1 | – | Sprague-Dawley rat, male, whole blood | intravenous, 5 mg/kg | – | Vdss | 43.6 ± 12.7 L/kg
Cc1nc(-c2ccc(OCC(C)C)c(C#N)c2)sc1C(=O)O | – | human, plasma | oral, 20 mg, added: verinurad 2.5 mg | baseline: test over reference | geometric mean ratio Cmax | 103
C[C@H]1[C@H]2N(C(=O)CN(C)N2C(=O)NCc2ccccc2)[C@@H](Cc2ccc(OP(=O)(O)O)cc2)C(=O)N1Cc1cccc2cccnc12 | – | patients, plasma | intravenous infusion, 280 mg/m2 over 4 h, median | – | AUC(0-24 h) | 7260 ng·h/mL
Cc1ccc(C(=O)N(CCCN)C(c2nc3snc(C)c3c(=O)n2Cc2ccccc2)C(C)C)cc1 (centres unmarked) | pneumonia grade ≥3 (CTCAE) | human patients | intravenous, 16 mg/day | – | patients with adverse event | 0%
CC(C(=O)NCC(=O)NCC(CNC(=O)CNC(=O)C(C)N1CCN(CC(=O)[O-])CCN(CC(=O)[O-])CCN(CC(=O)[O-])CC1)(CNC(=O)CNC(=O)C(C)N1CCN(CC(=O)[O-])CCN(CC(=O)[O-])CCN(CC(=O)[O-])CC1)CNC(=O)CNC(=O)C(C)N1CCN(CC(=O)[O-])CCN(CC(=O)[O-])CCN(CC(=O)[O-])CC1)N1CCN(CC(=O)[O-])CCN(CC(=O)[O-])CCN(CC(=O)[O-])CC1.[Gd+3].[Gd+3].[Gd+3].[Gd+3] (centres unmarked) | HPLC-ICP-MS | cynomolgus monkey, urine | up to 72 h | baseline: total Gd | intact compound share | > 98%
C[C@]1(Cn2ccnn2)[C@H](C(=O)O)N2C(=O)C[C@H]2S1(=O)=O | – | human whole blood | concentration not given, 24 h, 4 °C | – | deviation from nominal concentration | 7.8%
Cl.[2H]C([2H])([2H])CC(=O)c1cnc(NC(=O)C2CC2)cc1Nc1cccc(-c2ncn(C([2H])([2H])[2H])n2)c1OC | – | human, fasted, multiple dose | oral, 10 mg once daily, tablet, day 14, geometric mean | – | Ctrough | 11.8 ng/mL
CC(C)(C)c1ccc(O)c(CN(Cc2cc(C(C)(C)C)ccc2O)C2CCC(NC(N)=O)CC2)c1 (centres unmarked) | – | human liver microsomes | 5 ng/mL, time not given, freeze-thaw, 3 cycles, -20 °C | – | recovery | 96.8 ± 5.1%
O=C1c2ccncc2C(=O)c2c1[nH]c1ccccc21 | – | Sprague-Dawley rat male, plasma | intravenous, 1 mg/kg | – | terminal half-life | 6.5 ± 0.8 h
CCO[C@H]1CCN(Cc2c(OC)cc(C)c3[nH]ccc23)[C@H](c2ccc(C(=O)O)cc2)C1 | – | PNH patients, active haemolysis | oral, 100 mg, treatment | – | incidence of pyrexia | 0%
O=C(O)CCCCCCCCC(=O)O | – | human, plasma | endogenous baseline diurnal | – | daily mean concentration | 41.5 ± 4.6 nM

SMILES | assay | test system | setting | how to read | endpoint | value
CCOc1c([C@H](C)n2nc(C)c3c(N)ncnc32)cc(Cl)c(F)c1[C@@H]1CNC(=O)C1 | – | patients with indolent lymphoma, plasma | oral, 20 mg, day 15, monotherapy | – | Cmax | 1580 nM
CNC(=O)c1ccc(-c2cnc3ncc(Cc4ccc5ncccc5c4)n3n2)cc1F | ultrafiltration | human severe hepatic function, plasma | oral, 200 mg, 3 h post-dose, geometric mean | – | fraction unbound | 0.042
Oc1ccc(/C=C/c2cc(O)cc(O)c2)cc1 | – | rat, azoxymethane-injected, blood | in vivo, 10 mg/kg, at sacrifice | – | r-GT level | < 3 IU/L
COc1ccnc(C(=O)O)c1O | soil adsorption | clay loam soil | pH 7.2, organic carbon 4.4 % | – | Freundlich coefficient KF | 171 mL/g
C=CCN1CC(=O)N2[C@@H](Cc3ccc(O)cc3F)C(=O)N(Cc3cccc(N4CC(N5CCN(CC)CC5)C4)n3)C[C@@H]2N1C(=O)NCc1ccccc1 | measured: Malaise | advanced solid tumour patients | oral, 100 mg twice daily, expansion part, any grade | – | treatment-related adverse events | 0%
CCNCCCNC/C=C\CNCCCNCC | LC-MS/MS | cancer patients, plasma | intravenous infusion, 150 mg, 60 min infusion, median, cycle 1 | – | volume of distribution | 6.69 L/kg
CC1CC(C(=O)O)N1C(=O)CCCCc1nc2ccccc2s1 (centres unmarked) | colloidal aggregate formation, dynamic light scattering | 50 mM potassium phosphate buffer | 200 µM, pH 7.0, 1% DMSO | higher = more aggregation | DLS scattered light intensity | 633000 counts/s
NC(=O)N1c2ccccc2C=Cc2ccccc21 | measured: gastrointestinal disorders (SOC) | human male | oral, dose not given, CTCAE on-treatment AEs | – | adverse events incidence | 40%
O=C(CCCN1CCC(O)(c2ccc(Br)cc2)CC1)c1ccc(F)cc1 | haemolysis | sheep erythrocytes | 1 h, pH 7.5 | – | HC50 | > 128 µg/mL
CC(C)CC(C#N)NS(=O)(=O)c1cccc(Cl)c1O (centres unmarked) | colloidal aggregate formation, dynamic light scattering | 50 mM potassium phosphate buffer | 200 µM, pH 7.0, 1% DMSO | higher = more aggregation | DLS scattered light intensity | 385000 counts/s
Cn1cc([C@H]2C[C@H]3CSC(N)=N[C@@]3(c3ccc(F)cc3F)CO2)cn1 | – | male 129/SVE mouse, brain | subcutaneous, 50 mg/kg, 18 h | – | brain concentration | 187 nM
COc1cccc(OC)c1-c1cc(C(=O)NC2(C(=O)O)C3CC4CC(C3)CC2C4)nn1-c1ccc(C(=O)N(C)CCCN(C)CCCN(C)C(=O)CN2CCN(CC(=O)[O-])CCN(CC(=O)[O-])CCN(CC(=O)[O-])CC2)cc1C(C)C.[177Lu+3] (centres unmarked) | – | mouse HT-29 xenograft, large intestine | 72 h post injection, biodistribution | – | tissue uptake | 0.1 %ID/g
CCCCc1ccc(-c2ccc(C#N)cc2)cc1 | measured: compound | human pregnant women, female fetuses, maternal serum | dose not given, paired maternal-cord samples, mean | – | concentration | 0.28 ng/mL
N#Cc1ccc2c(c1)[C@H]1CCCN(C(=O)c3ccc4[nH]cnc4c3)[C@H]1C2 | – | human females | 40 mg, end of trial | – | total testosterone level | 1 nmol/L
Cc1ccc(Sc2ccccc2N2CCNCC2)c(C)c1 | measured: thermal burn | healthy adult men | oral, 20 mg daily, 12 days | – | participants with TEAE | 0%
Cc1c(-c2ccc(N3CCc4cccc(C(=O)Nc5nc6ccccc6s5)c4C3)nc2C(=O)O)cnn1CC12CC3(C)CC(C)(C1)CC(OCCNCC[C@H](O)CO)(C3)C2 | – | beagle dog, anaesthetised | intravenous infusion, 0.3 mg/kg/min, 120 min | baseline: vehicle | PR interval change | 1 ms
CC(C)(C(=O)N1CCOc2c(C#N)cncc2C1)C(F)F | measured: vessel puncture site haemorrhage | human, both sexes | oral, 20 mg twice daily, 14 days, multiple ascending dose | – | subjects with TEAE | 12.5%
Cn1ncc(S(=O)(=O)NC2(c3cccc(OC(F)(F)F)c3)CC2)c1C(=O)O | colloidal aggregate formation, dynamic light scattering | 50 mM potassium phosphate buffer | 200 µM, pH 7.0, 1% DMSO | higher = more aggregation | DLS scattered light intensity | 373000 counts/s
COc1cc(C(=O)NC2CCN(C)CC2)c(F)cc1Nc1ncc(C(F)(F)F)c(Oc2cccc3c2C(=O)N(C)C3)n1 | – | human patients, plasma | oral, 200 mg single dose, cycle 1 day 1, geometric mean | – | Cmax, dose-normalised | 9.14
